Experimental data from different studies.
Each numbered part is a random draw from the data of one study; scales do not carry over between parts. Changes are numbered by the printed parent chain.

Sample 1
Target: CCNF, cyclin fold, Cln2 fusion (human)
Method: yeast growth competition, sequencing
Medium: yeast
Setting: strong parent motif
Baseline: not given
Direction: higher = stronger binding
Starting sequence: CDKN1A docking peptide (human); SKACRRLFGPVDS; partner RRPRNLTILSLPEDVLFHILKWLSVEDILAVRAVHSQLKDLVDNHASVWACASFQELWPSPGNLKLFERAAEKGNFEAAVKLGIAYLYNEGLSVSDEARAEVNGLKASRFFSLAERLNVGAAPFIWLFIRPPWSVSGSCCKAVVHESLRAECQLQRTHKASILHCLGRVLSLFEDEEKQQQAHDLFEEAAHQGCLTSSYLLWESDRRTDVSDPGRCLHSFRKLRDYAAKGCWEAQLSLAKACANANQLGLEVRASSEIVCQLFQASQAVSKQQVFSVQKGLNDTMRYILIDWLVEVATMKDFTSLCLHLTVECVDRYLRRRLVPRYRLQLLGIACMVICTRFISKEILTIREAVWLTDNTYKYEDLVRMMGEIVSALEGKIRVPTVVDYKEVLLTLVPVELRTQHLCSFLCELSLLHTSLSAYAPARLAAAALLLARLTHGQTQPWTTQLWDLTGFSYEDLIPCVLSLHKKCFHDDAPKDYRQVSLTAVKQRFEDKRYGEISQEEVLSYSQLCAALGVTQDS
Change | normalised enrichment score
R5L | 0.464
K2D | 6.81
P10Q | 6.42
K2P | 7.19
L7E | -0.131
V11I | 7.7
D12T | 7.34
P10G | 7.08
K2W | 7.05
D12P | 7.96
C4N | 6.8
A3P | 7.2
K2Q | 7.28
R5P | -0.164
L7K | 0.75
P10I | 6.76
P10Y | 6.99
C4Y | 3.04
L7D | 0.0836
G9E | 7.05
K2G | 7.55
R5G | 0.0348
V11G | 7.45

Sample 2
Target: RNA binding protein fox-1 homolog 2, RRM domain, GST-SBP tag (RBFOX2, Homo sapiens, UniProt O43251-10, residues 100-194)
Method: RNA Bind-n-Seq
Molecule type: RNA
Medium: in vitro
Tested at: 365 nM
Setting: natural RNA segment, single round, ends assumed
Baseline: no-protein control
Direction: higher = stronger binding
Residues (chain): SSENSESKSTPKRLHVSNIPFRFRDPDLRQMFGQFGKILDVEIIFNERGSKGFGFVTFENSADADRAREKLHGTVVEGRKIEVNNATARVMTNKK
Sequence | RBNS enrichment (R)
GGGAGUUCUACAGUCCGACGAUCUCCUUGUGAACUGUGCAGAAGGAGUGAUCCCAGCAUCGGCAAGCGAGGGAGAAGACUGCACGAGAGUGAUGCGCAUUUCGAGUCUGCUUUUCGAUAGUUGAUGUCUUCUUUGGAAUUCUCGGGUGCCAA | 0.713
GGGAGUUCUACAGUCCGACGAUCCUUAGAGCACAGGCUAAGGGCCACGGCUAACAGGGACGUCCCAUUUCUUUCCUGUUCCAUCCAACUUACCCAUCAUGCAGGGACAGCUGAGGUCCACUCGUGACCUAGGCUGGAAUUCUCGGGUGCCAA | 0.394
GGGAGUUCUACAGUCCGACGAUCGGAGAGCUUCAGUGGCACCUCAAAACCCACCCUUCGAGAUCUGUCCAAAGACAGUCUCAGAAAGCUGCACUGCCCACCGGCUCAGCUUUCAUUCAAAAAGGCUUCCAAGGUGGAAUUCUCGGGUGCCAA | 0.255
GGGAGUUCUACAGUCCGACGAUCAGAGAAGUCUGCUUUGACUGCCUUGCCUGACCAAAUUAAAUAAAUAGUUGCCAGAUCUCUACUUUUAUCCUGCAUGGGAUAAUAUAUCUGUAAAUGCAUGAGUUUGGAAAUGGAAUUCUCGGGUGCCAA | 6.65
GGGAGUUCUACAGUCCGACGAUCCUAACAUUAUCCCCCAGUGAUUACUUUCGAUUACACUGAAGAGACCACCUUGUCUUUAAAGAUCACUUUCCUGGGCUGCAAUGUUCCAACCCAGUUGUUCCAGCUGUUCAUGGAAUUCUCGGGUGCCAA | 0.435
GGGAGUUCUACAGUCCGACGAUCUUUGUGGGAUUUUGUUUGGACACAGAGUUGUUUUGCAAUCAUGGUGUGCUUCCCAGGGACAGAGCGUGUGCUGUGGCGGCUAGGCUCCUUGGAGGUCACAAGCAGCUGGCUGGAAUUCUCGGGUGCCAA | 0.883
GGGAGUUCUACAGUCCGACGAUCAAAAGGUAUGUCAGACUGGGAUUAAUGACAGCAUGAUUUUCAAUGACUGUAAAUUGCGAUAAGGAAAUGUACUGAUUGCCAAUACACCCCACCCUCAUUACAUCAUCAGGUGGAAUUCUCGGGUGCCAA | 0.578
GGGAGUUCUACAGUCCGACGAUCGUAUAUACAAUAAAAUUGCACCCUUUUUUAAACAAAACAAACUAAGCAAUAGUUUGGGCAGUUUUAGUUGUUUUUAGUGAGCAUGUUGUAGUCAUGACUGCAAAGAGAGAUGGAAUUCUCGGGUGCCAA | 14.1
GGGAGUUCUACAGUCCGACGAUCAUCUGUCCCUUGACAGGGAAGGUAGGCUUCUGGCUAGCAGAGCAGGUGACACAAACCAGUUUAUUGGAGAACAGCCUGGACAAAGGCCCAUAGGUAGGUAAAAUAGUAUGUGGAAUUCUCGGGUGCCAA | 0.514
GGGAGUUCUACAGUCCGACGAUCAAUGAGUAAAUGGCUCACCAAUUUAUGCAUAGCCCUGCACAUGAGCAGAAUGUGACACUCAAAGCAUCCAUGCAGUACGCAUGUAACCUUGCACAGGAGUGGGGCUCUGGUGGAAUUCUCGGGUGCCAA | 2.13
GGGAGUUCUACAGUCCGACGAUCCUAUUUAAAAGAAAGAAAAUGUAUUUUCCAUAGUAGUUUUGUGUAAAUCGUAUGAUUCACCUCAUCUUUAAUAUGCAUUGAAAUAGGUAAUACUAGAUGCAAGUGUUUCCUGGAAUUCUCGGGUGCCAA | 0.524
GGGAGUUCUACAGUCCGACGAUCUAAGAUACUUUUCCCCACUCCUUUCUUUGUGUGUAGUGCAGCAACAGUUUGGUCUGCAUUUGUUAGAAGUGUAACUCCUAACAACCCAAAGACCUAUUUAAUAAUUGGUGUGGAAUUCUCGGGUGCCAA | 0.303

Sample 3
Target: Sal-like protein 4, full length isoform B (SALL4, Homo sapiens, UniProt Q9UJQ4-2, residues 1-616)
Method: universal PBM
Molecule type: double-stranded DNA, one strand shown
Medium: in vitro
Tested at: not given
Setting: 8-mer, flanks averaged, mean of replicates
Direction: higher = stronger binding
Sequence | E-score
AATCTTTG | 0.18
ACACACAG | -0.0502
ACAAGGTG | 0.00402
CAAACACG | 0.0101
CCTTACAA | 0.0978
CAAGTCTG | -0.0506
GGCTAGGA | -0.0463
CGAGGGCG | -0.208
TCTTGGAA | 0.0484
CCGGTGTC | -0.343
AAAATTGG | 0.178
ATCAACAG | 0.0326
CACATCGC | -0.184
GCTTCGGA | -0.0644
CGCCTGAA | -0.181
CGATCACA | 0.0997
CATCTGAG | -0.0965
GGAGCACA | -0.059
GCTTGGGA | -0.131
GCCCCACC | -0.203
ACTTTTAA | 0.233
CATGTCCA | 0.0053
AGAGCAGC | -0.0887
CATGATGA | 0.141
AATTTGAT | 0.215

Sample 4
Target: Histone acetyltransferase KAT6A, winged helix 1, GST fusion (KAT6A, Homo sapiens, UniProt Q92794, residues 1-85)
Method: protein binding microarray
Molecule type: double-stranded DNA, one strand shown
Medium: in vitro
Tested at: not given
Setting: 8-mer, flanks averaged, mean of 2 arrays, mostly near background
Baseline: not given
Direction: higher = stronger binding
Target sequence (chain): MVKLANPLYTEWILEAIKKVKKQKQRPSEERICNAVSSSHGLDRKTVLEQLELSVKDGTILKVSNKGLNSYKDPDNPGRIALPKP
Sequence | E-score
CTCGCCAA | -0.0426
ACACGCGT | 0.275
CTCTTGCC | -0.159
ACTAGCAT | -0.0242
AAGTAAGA | -0.0788
ACAAGCTC | -0.183
AAAGAATC | -0.0509
CATTGCCG | 0.285
AATATATA | 0.00985
AGACGAAG | -0.141
ACCAAGGT | -0.154
CATAGGGC | 0.0829
AACCGCGA | 0.243
TAGTGTCA | 0.0182
AACGGGCA | 0.134
GCTCCACC | -0.0555
AGGCGCGC | 0.435
GTGTGAAC | -0.0359
ACGAATTC | -0.183
TTGGCAAA | -0.166
GGAGCTGA | -0.203
CTTTTGCC | -0.00624
CTTCTTCA | -0.0785
CTACCTAG | -0.115
AGGGTAGG | -0.0303
